Experimental data collected from several papers.
Several values in a cell are separate wells, animals, samples, runs or records. ± gives the spread as reported.

O=C(NNC(=NS(=O)(=O)c1ccc(-n2nc(C(F)(F)F)cc2-c2cccs2)cc1)N1CCCC1)c1ccc(Cl)cc1
remaining activity (Aminopeptidase N (ANPEP, Sus scrofa, UniProt P15145); enzyme activity; 3 µM, 30 min preincubation, undiluted, unit not given; reference: untreated): 0.51 ± 0.001

OC[C@H]1O[C@@H](O[C@@H]2[C@@H](O)[C@H](O[C@@H]3[C@@H](O)[C@H](O[C@@H]4[C@@H](O)[C@H](O[C@H]5[C@H](O)[C@@H](CO)OC(O)[C@@H]5O)O[C@H](CO)[C@H]4O)O[C@H](CO)[C@H]3O)O[C@H](CO)[C@H]2O)[C@H](O)[C@@H](O)[C@@H]1O (stereo partly shown)
-TΔS (uncharacterized protein (Bacteroides thetaiotaomicron, UniProt A0A173VPY3); ITC; pH 7.0, 25 °C): 6.98 kcal/mol

O=C[C@@H](O)[C@@H](O)[C@H](O)[C@H](O)COP(=O)(O)O
phosphatase activity (uncharacterized protein (Bacteroides thetaiotaomicron, UniProt Q8A4G9); activator, phosphate release; concentration not given, added: Mg2+): active

COC(=O)Nc1c(N)nc(-c2nn(Cc3ccccc3F)c3ncc(F)cc23)nc1N
total radioactivity recovered (human, male, urine and feces; oral, 5 mg, 336 h, 14C-labelled, mean; reference: dose): 98.3%

CO/N=C(\C(=O)N[C@@H]1C(=O)N2C(C(=O)O)=C(COC(C)=O)CS[C@H]12)c1csc(N)n1
MIC (Serratia fonticola; clinical isolate RKI-No_517/16): > 16 µg/mL

[Mn+2]
relative specific activity (uncharacterized protein (Bacteroides thetaiotaomicron, UniProt Q8A183); phosphatase activity, activator, phosphate release; 5 mM, EDTA-treated enzyme, added: substrate 20 mM; reference: activity with Mg2+): 0.059

CC(=O)Nc1ccc2c(c1)C=CC2=O
ΔTm (Adenosylmethionine-8-amino-7-oxononanoate aminotransferase (Mycobacterium tuberculosis, UniProt P9WQ81); thermal stability, differential scanning fluorimetry; 5 mM, holo enzyme; reference: DMSO): 3.6 ± 0.2 °C

O=P(O)(O)OC[C@H]1OC(O)[C@H](O)[C@@H](O)[C@@H]1O (stereo partly shown)
phosphatase activity (uncharacterized protein (Bacteroides thetaiotaomicron, UniProt Q8A4G9); activator, phosphate release; concentration not given, added: Mg2+): active

O=C1c2c(O)ccc(O)c2C(=O)c2c(NCCNCCO)ccc(NCCNCCO)c21
inhibition (DNA gyrase (gyrA/gyrB, Escherichia coli, UniProt P0AES4+P0AES6); DNA cleavage, fluorescence HTS; 19.6 µM): 54%

COc1cc([C@@H]2c3cc4c(cc3[C@@H](O[C@@H]3O[C@@H]5CO[C@@H](C)O[C@H]5[C@H](O)[C@H]3O)[C@H]3COC(=O)[C@H]23)OCO4)cc(OC)c1O
mean decatenated DNA (DNA topoisomerase 2-beta (TOP2B, Homo sapiens, UniProt Q02880); decatenation; 100 µM): 89.8% and 91.5%

Nc1nc(N)c2cc(Sc3cccc(C(F)(F)F)c3)ccc2n1
Kd (Dihydrofolate reductase (folA, Escherichia coli, UniProt P0ABQ4); differential scanning fluorimetry; estimate from thermal shift): 6.2 ± 1.2 µM

N#CCC1CCN(c2nc(Nc3ccc(N4CCC(O)CC4)cc3)c3c(=O)[nH]ncc3n2)CC1
serum level change (Olink multiplex, measured: CDCP1; human, serum; 20 mg, day 15, unit not given; reference: placebo): -1.1

Fc1ccccc1Cc1nc(-c2nc(C(F)(F)F)n[nH]2)cn2ccnc12
subjects with skin TEAEs (healthy human subjects, both sexes; oral, 10 mg, fasted): 7.1%

For quick reference, copied from above:
COC(=O)Nc1c(N)nc(-c2nn(Cc3ccccc3F)c3ncc(F)cc23)nc1N
total radioactivity recovered (human, male, urine and feces; oral, 5 mg, 336 h, 14C-labelled, mean; reference: dose): 98.3%
